Results from different studies.
Every numbered part comes from another study and shows a few of its results, in no order.
Sequence of UniProt P93024 (whole entry, looked up): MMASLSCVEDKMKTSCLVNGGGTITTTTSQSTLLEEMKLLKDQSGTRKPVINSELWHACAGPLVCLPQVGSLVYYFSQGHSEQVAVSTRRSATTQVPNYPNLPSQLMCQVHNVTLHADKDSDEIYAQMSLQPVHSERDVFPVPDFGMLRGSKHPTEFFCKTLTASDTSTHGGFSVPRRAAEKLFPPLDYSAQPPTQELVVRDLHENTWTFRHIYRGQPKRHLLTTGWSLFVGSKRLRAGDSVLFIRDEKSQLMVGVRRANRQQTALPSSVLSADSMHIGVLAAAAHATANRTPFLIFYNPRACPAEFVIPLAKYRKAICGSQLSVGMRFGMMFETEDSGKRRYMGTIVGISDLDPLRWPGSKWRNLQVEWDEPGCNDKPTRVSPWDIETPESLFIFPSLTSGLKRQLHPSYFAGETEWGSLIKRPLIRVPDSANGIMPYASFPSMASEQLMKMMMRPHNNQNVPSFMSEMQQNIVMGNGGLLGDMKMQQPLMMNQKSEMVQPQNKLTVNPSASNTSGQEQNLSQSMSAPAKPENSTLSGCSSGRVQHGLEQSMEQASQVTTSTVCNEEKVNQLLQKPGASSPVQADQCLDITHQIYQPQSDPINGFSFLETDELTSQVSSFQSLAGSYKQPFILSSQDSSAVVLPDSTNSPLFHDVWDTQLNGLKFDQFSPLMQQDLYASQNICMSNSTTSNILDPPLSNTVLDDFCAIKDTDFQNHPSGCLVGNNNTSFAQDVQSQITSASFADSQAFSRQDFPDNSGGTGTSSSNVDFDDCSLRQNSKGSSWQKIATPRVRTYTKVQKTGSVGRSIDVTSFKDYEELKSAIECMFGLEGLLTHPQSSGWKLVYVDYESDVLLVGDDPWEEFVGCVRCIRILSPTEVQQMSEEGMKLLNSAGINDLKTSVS
Sequence of UniProt Q8L7G0 (whole entry, looked up): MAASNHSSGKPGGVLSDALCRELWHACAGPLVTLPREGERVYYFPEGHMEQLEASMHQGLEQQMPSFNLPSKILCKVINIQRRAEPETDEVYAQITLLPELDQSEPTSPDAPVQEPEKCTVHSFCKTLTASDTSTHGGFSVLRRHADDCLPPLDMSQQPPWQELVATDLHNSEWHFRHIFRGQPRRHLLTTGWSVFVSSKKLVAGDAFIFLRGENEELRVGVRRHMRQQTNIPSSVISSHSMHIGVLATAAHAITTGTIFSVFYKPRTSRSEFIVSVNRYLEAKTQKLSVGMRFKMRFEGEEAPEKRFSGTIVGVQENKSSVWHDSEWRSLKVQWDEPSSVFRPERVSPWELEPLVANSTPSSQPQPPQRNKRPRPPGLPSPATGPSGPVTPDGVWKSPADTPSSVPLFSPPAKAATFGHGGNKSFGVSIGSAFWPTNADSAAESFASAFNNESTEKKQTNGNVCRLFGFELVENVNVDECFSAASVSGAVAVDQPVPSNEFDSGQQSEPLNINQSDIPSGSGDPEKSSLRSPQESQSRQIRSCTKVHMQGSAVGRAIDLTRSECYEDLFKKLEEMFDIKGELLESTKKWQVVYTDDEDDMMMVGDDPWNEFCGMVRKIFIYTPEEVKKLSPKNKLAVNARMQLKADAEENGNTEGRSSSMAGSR
Sequence of UniProt Q9C5X0 (whole entry, looked up): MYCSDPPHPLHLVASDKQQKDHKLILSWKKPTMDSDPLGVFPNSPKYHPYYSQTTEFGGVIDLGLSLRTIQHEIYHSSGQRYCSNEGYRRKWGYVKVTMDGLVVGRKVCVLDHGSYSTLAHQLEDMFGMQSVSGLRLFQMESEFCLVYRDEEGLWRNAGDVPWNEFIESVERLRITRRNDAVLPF
Sequence of UniProt Q9M1R4 (whole entry, looked up): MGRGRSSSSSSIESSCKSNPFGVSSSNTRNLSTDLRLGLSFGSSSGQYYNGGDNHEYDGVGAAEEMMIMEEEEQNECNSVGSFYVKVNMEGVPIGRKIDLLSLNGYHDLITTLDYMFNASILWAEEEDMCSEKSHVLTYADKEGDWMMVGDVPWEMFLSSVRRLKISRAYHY
Sequence of UniProt Q9ZTX9 (whole entry, looked up): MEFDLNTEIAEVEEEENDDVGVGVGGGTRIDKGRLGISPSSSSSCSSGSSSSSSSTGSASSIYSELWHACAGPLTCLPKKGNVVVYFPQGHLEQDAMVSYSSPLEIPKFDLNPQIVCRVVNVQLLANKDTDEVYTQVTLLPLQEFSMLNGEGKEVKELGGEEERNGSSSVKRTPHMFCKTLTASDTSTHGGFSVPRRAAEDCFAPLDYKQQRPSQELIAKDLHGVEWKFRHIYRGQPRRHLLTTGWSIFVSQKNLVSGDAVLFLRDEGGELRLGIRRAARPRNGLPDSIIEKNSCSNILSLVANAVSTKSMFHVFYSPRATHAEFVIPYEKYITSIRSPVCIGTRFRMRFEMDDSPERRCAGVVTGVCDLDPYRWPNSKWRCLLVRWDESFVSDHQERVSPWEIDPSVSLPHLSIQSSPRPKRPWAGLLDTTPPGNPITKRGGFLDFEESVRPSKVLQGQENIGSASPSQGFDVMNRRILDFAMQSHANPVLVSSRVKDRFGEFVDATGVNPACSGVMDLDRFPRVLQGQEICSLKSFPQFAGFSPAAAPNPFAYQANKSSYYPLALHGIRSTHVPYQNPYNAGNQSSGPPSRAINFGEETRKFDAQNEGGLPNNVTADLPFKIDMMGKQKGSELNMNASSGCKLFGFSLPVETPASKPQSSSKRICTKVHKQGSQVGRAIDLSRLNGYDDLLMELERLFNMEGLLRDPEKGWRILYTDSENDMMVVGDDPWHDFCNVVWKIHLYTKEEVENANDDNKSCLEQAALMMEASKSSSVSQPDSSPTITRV
Sequence of UniProt Q9XED8 (whole entry, looked up): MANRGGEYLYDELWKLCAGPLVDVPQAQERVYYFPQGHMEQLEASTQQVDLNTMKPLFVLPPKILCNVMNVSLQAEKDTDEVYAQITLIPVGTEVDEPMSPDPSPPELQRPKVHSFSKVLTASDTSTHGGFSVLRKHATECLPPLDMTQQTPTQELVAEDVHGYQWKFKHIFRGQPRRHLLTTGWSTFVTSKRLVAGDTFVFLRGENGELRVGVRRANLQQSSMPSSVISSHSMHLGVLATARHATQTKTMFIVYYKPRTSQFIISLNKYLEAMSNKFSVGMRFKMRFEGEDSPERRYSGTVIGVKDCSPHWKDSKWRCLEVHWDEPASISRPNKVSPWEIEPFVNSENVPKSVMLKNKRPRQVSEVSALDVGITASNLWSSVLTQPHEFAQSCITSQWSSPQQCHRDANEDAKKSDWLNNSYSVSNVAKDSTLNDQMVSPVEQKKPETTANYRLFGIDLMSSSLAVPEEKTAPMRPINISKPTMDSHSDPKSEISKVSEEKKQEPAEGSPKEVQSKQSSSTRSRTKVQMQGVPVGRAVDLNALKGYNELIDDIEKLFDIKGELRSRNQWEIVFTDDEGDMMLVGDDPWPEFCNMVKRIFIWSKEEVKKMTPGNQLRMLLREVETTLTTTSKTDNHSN

Sample 1
Target: POU domain, class 6, transcription factor 1, POU and homeodomain (POU6F1, Homo sapiens, UniProt Q14863, residues 311-611)
Technique: protein-binding microarray
Form: hairpin DNA
Matrix: in vitro
Tested at: not given
Setting: whole hairpin DNA, median over replicate spots
Reference: not given
Direction: higher = stronger binding
All sequences stand within: GAGGCCA … TGGCCTCACACTCTT
Residues (chain): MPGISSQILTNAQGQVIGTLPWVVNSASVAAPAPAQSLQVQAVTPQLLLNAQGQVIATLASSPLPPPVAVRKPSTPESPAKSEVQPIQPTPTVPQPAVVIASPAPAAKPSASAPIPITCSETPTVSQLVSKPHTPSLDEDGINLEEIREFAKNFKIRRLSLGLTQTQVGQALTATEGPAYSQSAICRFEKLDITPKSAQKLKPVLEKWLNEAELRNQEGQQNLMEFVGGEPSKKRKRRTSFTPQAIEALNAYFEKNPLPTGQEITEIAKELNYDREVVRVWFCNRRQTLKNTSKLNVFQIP
Oligonucleotide	median fluorescence
TAATGAGCGGCCTCCTGGCCGCTCATTA (5mC at 27)	1990 a.u.
GAATTAGGTGCCTCCTGGCACCTAATTC (5mC at 35)	436 a.u.
CGATGAGGTGCCTCCTGGCACCTCATCG	346 a.u.
TAATTAGCGGCCTCCTGGCCGCTAATTA (5mC at 15)	1720 a.u.
CGATTAGGTGCCTCCTGGCACCTAATCG (5mC at 34)	368 a.u.
AAATTAGGTGCCTCCTGGCACCTAATTT	602 a.u.
TAATGACGTGCCTCCTGGCACGTCATTA (5mC at 14)	880 a.u.
TGATGAGGTGCCTCCTGGCACCTCATCA (5mC at 34)	456 a.u.

Sample 2
Molecule: B1 (IAA29)
Technique: two-hybrid
Reference: out of 4 tests
Direction: higher = firmer interaction
B1: IAA29 (Arabidopsis thaliana, UniProt Q93WC4); chain MELDLGLSLSPHKSSKLGFNFDLNKHCAIEGAASCLGTEKLRFEATFGLGNVEENCYMPKQRLFALNGQPNEEDEDPLESESSIVYDDEEENSEVVGWPPVKTCMIKYGSYHHRHIRNHHHCPYHHRGRRITAMNNNISNPTTATVGSSSSSSISSRSSMYVKVKMDGVAIARKVDIKLFNSYESLTNSLITMFTEYEDCDREDTNYTFTFQGKEGDWLLRGDVTWKIFAESVHRISIIRDRPCAYTRCLF
partner	conditions	positive tests
IAA30 (Arabidopsis thaliana, UniProt Q9M1R4)	weak activation fusion	1
ARF1 538-665 (Arabidopsis thaliana, UniProt Q8L7G0)	–	0
IAA34 (Arabidopsis thaliana, UniProt Q9C5X0)	–	2
ARF4 660-788 (Arabidopsis thaliana, UniProt Q9ZTX9)	–	0
ARF9 519-638 (Arabidopsis thaliana, UniProt Q9XED8)	weak activation fusion	2
ARF5 788-902 (Arabidopsis thaliana, UniProt P93024)	–	4

Single results of other studies
Substance	target or system	test	system	conditions	quantity	value
SARNP (Homo sapiens, UniProt P82979)	CHST4 (Homo sapiens, UniProt Q8NCG5)	cross-linking MS	cell fractions	with: DSSO	cross-linked residues	K31 to K235
TTIGEWAFW	HLA class I histocompatibility antigen, A alpha chain, allele A*80:01 (Homo sapiens, UniProt P04439)	peptide-MHC binding	peptide	concentration not given	binding	inactive
KIAA0513 (Homo sapiens, UniProt O60268)	MTHFD1 (Homo sapiens, UniProt P11586)	cross-linking MS	cell fractions	with: DSSO	cross-linked residues	K253 to K297
NOP14 (Homo sapiens, UniProt P78316)	EMG1 (Homo sapiens, UniProt Q92979)	cross-linking MS	–	hits only	interaction screen	cross-linked
CHI3L2 (Homo sapiens, UniProt Q15782)	RPRD1A (Homo sapiens, UniProt Q96P16)	cross-linking MS	cell fractions	with: DMTMM	cross-linked residues	K315 to D236

A few entries again (single results of other studies):
Substance	target or system	test	system	conditions	quantity	value
SARNP (Homo sapiens, UniProt P82979)	CHST4 (Homo sapiens, UniProt Q8NCG5)	cross-linking MS	cell fractions	with: DSSO	cross-linked residues	K31 to K235
